Values quoted from earlier work as cited in several papers.
Each line is one published result; not all experiments were run side by side. “And” joins repeats or separate records; there may be more than shown. ± gives the spread as reported.

SMILES | system | setting | scale | Cmax
CNCCCC12CCC(c3ccccc31)c1ccccc12 | human | concentration not given |  | 230 nM
CC(=O)Oc1ccccc1C(=O)O | human, plasma | concentration not given, highest clinical total |  | 111000 nM
C#Cc1cccc(Nc2ncnc3cc(OCCOC)c(OCCOC)cc23)c1 | human | oral, 150 mg once daily, day 28, 24 h |  | 2530 ± 1190 ng/mL
CC(C)(C)NC(=O)[C@H]1CC[C@H]2[C@@H]3CC[C@H]4NC(=O)C=C[C@]4(C)[C@H]3CC[C@]12C | human, plasma | concentration not given, total concentration |  | 220 nM
CC(=O)c1c(C)c2cnc(Nc3ccc(N4CCNCC4)cn3)nc2n(C2CCCC2)c1=O | human patients, plasma | oral, 125 mg once daily, steady state, fasted, geometric mean |  | 94.9 ng/mL
CN1CCN(c2ccc3nc(-c4c(N)c5c(F)cccc5[nH]c4=O)[nH]c3c2)CC1 | human | oral, 500 mg, 5 days on 2 days off, day 1, 24 h |  | 180 to 487 ng/mL
CC1(C)S[C@@H]2[C@H](NC(=O)[C@H](N)c3ccc(O)cc3)C(=O)N2[C@H]1C(=O)O | human, plasma | concentration not given, highest clinical total |  | 159000 nM
CCN1C(=O)N(c2c(F)c(OC)cc(OC)c2F)Cc2cnc3[nH]c(CN4CCOCC4)cc3c21 | healthy human volunteers | oral, 4.5 mg single dose, geometric mean |  | 55.2 nM
O=C(CCCCCCC(=O)Nc1ccccc1)NO | human, plasma | oral, 400 mg once daily, with food |  | 430 to 2980 nM
O=C1Nc2ccc(Cl)cc2[C@@](C#CC2CC2)(C(F)(F)F)O1 | human, plasma | 600 mg once daily, steady state |  | 9200 to 16600 nM
CC(C)NCC(O)c1ccc(NS(C)(=O)=O)cc1 (racemic) | human, plasma | concentration not given, highest clinical total |  | 18400 nM
C1=C/COCc2cc(ccc2OCCN2CCCC2)Nc2nccc(n2)-c2cccc(c2)COC/1 | human patients, plasma | dose not given |  | 22500 nM
CN(CCOc1ccc(CC2SC(=O)NC2=O)cc1)c1ccccn1 (stereo not drawn) | human, plasma | oral, 8 mg single dose |  | 1500 nM
Cc1ccc(/C=C2/C(=O)C3(C)CCC2C3(C)C)cc1 (stereo not drawn) | human, male, plasma | dermal, 22 mg/kg, sunscreen 4% compound | geometric mean | 51.9 ng/mL
O=C(c1cc(Cc2n[nH]c(=O)c3ccccc23)ccc1F)N1CCN(C(=O)C2CC2)CC1 | human | oral, 400 mg twice daily, multiple dose, pooled trials |  | 6250 ng/mL
O=C(CCCCCCC(=O)Nc1ccccc1)NO | human | oral, 400 mg/day |  | 1000 to 1500 nM
COc1cccc(CCc2ccccc2OCC(CN(C)C)OC(=O)CCC(=O)O)c1 (racemic) | human | 100 mg single dose, highest mean clinical value |  | 1700 nM
CCOc1cc2ncc(C#N)c(Nc3ccc(OCc4ccccn4)c(Cl)c3)c2cc1NC(=O)/C=C/CN(C)C | human patients, plasma | dose not given |  | 146 nM

SMILES | system | setting | scale | Cmax
CC(C)NCC1CCc2cc(CO)c([N+](=O)[O-])cc2N1 (stereo not drawn) | healthy human | oral, 1000 mg |  | 7100 ± 1000 nM
CC/C(=C(\c1ccccc1)c1ccc(OCCN(C)C)cc1)c1ccccc1 | human, plasma | concentration not given, highest clinical total |  | 493 nM
Cc1cc(-c2ccc(C(=O)[C@@H]3CCCC[C@H]3C(=O)Nc3cnn4c3C(=O)NCC4)cc2)n[nH]1 | human, non-Japanese | oral, 360 mg multiple doses, day 10, geometric mean |  | 3210 nM
CNC(=O)c1ccccc1Sc1ccc2c(/C=C/c3ccccn3)n[nH]c2c1 | human, plasma | concentration not given, total concentration |  | 56 nM
Cn1c(=O)c2c(ncn2C)n(C)c1=O | human, plasma | oral, 315 to 530 mg/day |  | 52000 nM
CC(=O)[C@]1(O)Cc2c(O)c3c(c(O)c2[C@@H](O[C@H]2C[C@H](N)[C@H](O)[C@H](C)O2)C1)C(=O)c1ccccc1C3=O | human, plasma | concentration not given, total concentration |  | 88 nM
NCCN[C@H]1CC[C@H](CC(=O)N[C@H]2Cc3cccc(C(=O)O)c3OB2O)CC1 | human, plasma | intravenous infusion, 500 mg over 2 h every 8 h, after 10 days, without cefepime |  | 26500 ng/mL
CN[C@H]1CC[C@@H](c2ccc(Cl)c(Cl)c2)c2ccccc21 | human | 200 mg/day |  | 86 ng/mL and 86.1 ng/mL
O=C(NCC1CCCCN1)c1cc(OCC(F)(F)F)ccc1OCC(F)(F)F (stereo not drawn) | human, plasma | concentration not given, total concentration |  | 930 nM
CCCS(=O)(=O)Nc1ccc(F)c(C(=O)c2c[nH]c3ncc(-c4ccc(Cl)cc4)cc23)c1F | human, plasma | 960 mg, highest approved dose |  | 125000 nM
COc1cccc2c1C(=O)c1c(O)c3c(c(O)c1C2=O)C[C@@](O)(C(=O)CO)C[C@@H]3O[C@H]1C[C@H](N)[C@H](O)[C@H](C)O1 | human, normal weight, plasma | intravenous infusion, 60 mg/m^2, 40 min infusion |  | 1000 nM
CC1=C(/C=C/C(C)=C/C=C/C(C)=C/C(=O)O)C(C)(C)CCC1 | human, plasma | concentration not given, maximum therapeutic |  | 1310 nM
C[C@]12C=CC(=O)C=C1CC[C@H]1[C@@H]3C[C@@H](O)[C@](O)(C(=O)CO)[C@@]3(C)C[C@H](O)[C@@]12F | human, plasma | concentration not given, total concentration |  | 27 nM
CO[C@H]1C[C@@H]2CC[C@@H](C)[C@@](O)(O2)C(=O)C(=O)N2CCCC[C@H]2C(=O)O[C@H]([C@H](C)C[C@@H]2CC[C@@H](OC(=O)C(C)(CO)CO)[C@H](OC)C2)CC(=O)[C@H](C)/C=C(\C)[C@@H](O)[C@@H](OC)C(=O)[C@H](C)C[C@H](C)/C=C/C=C/C=C/1C | human | intravenous, 25 mg once weekly, day 7 or 28 |  | 595 ± 102 ng/mL
CC(C)(C)NCC(O)COc1cccc2c1CC(O)C(O)C2 (stereo not drawn) | human, plasma | concentration not given, total concentration |  | 430 nM
NC(=O)N1c2ccccc2CC(=O)c2ccccc21 | human, plasma | 1200 mg eslicarbazepine acetate once daily |  | 1000 nM
O=C(CCCN1CCC(O)(c2ccc(Cl)cc2)CC1)c1ccc(F)cc1 | human, plasma | concentration not given, total concentration |  | 27 nM
O=C(CCCN1CC=C(n2c(=O)[nH]c3ccccc32)CC1)c1ccc(F)cc1 | human, plasma | concentration not given, highest clinical total |  | 4100 nM

Repeated from above:
SMILES | system | setting | scale | Cmax
C[C@]12C=CC(=O)C=C1CC[C@H]1[C@@H]3C[C@@H](O)[C@](O)(C(=O)CO)[C@@]3(C)C[C@H](O)[C@@]12F | human, plasma | concentration not given, total concentration |  | 27 nM
CO[C@H]1C[C@@H]2CC[C@@H](C)[C@@](O)(O2)C(=O)C(=O)N2CCCC[C@H]2C(=O)O[C@H]([C@H](C)C[C@@H]2CC[C@@H](OC(=O)C(C)(CO)CO)[C@H](OC)C2)CC(=O)[C@H](C)/C=C(\C)[C@@H](O)[C@@H](OC)C(=O)[C@H](C)C[C@H](C)/C=C/C=C/C=C/1C | human | intravenous, 25 mg once weekly, day 7 or 28 |  | 595 ± 102 ng/mL
